Measured values gathered from unrelated publications.
Compare with care: the assays were run in different laboratories. ± gives the spread as reported.

CCCC[C@H](NC(=O)CN1CCC(NC(=O)CN2CCN(CC(=O)O)CCN(CC(=O)O)CCN(CC(=O)O)CC2)CC1)C(=O)N[C@H]1CC(=O)NCCCC[C@@H](C(N)=O)NC(=O)[C@H](Cc2c[nH]c3ccccc23)NC(=O)[C@H](CCCNC(=N)N)NC(=O)[C@@H](Cc2ccccc2)NC(=O)[C@H](Cc2c[nH]cn2)NC1=O [gallium-68 labelled] gave a tissue uptake of 0.3 %ID/g (C57BL/6J mice male B16-F10 tumour, spleen; 2 h post injection, unblocked).
CC(C)[C@H](NC(=O)[C@@H]1CCCN1C(=O)[C@H](CCCNC(=N)N)NC(=O)[C@H](CS)NC(=O)[C@H](Cc1c[nH]c2ccccc12)NC(=O)[C@H](CCCNC(=N)N)NC(=O)[C@@H](Cc1ccccc1)NC(=O)[C@H](Cc1c[nH]cn1)NC(=O)[C@H](CCC(=O)O)NC(=O)[C@H](CS)NC(=O)[C@H](CS)NC(=O)CNC(=O)[C@@H]1CC(=O)N[C@@H](CCCNC(=N)N)C(=O)NCC(=O)N[C@@H](CC(=O)O)C(=O)N[C@H](Cc2ccc(O)cc2)C(=O)N1)C(N)=O [technetium-99m labelled] gave a tissue uptake of 2.41 ± 0.42 %ID (C57 mice B16/F1 melanoma female, intestines; iv, 0.037 MBq, 2 h).
For CCCC[C@H](NC(=O)CNC(=O)CNC(=O)CN1CCN(CC(=O)O)CCN(CC(=O)O)CCN(CC(=O)O)CC1)C(=O)N[C@H]1CC(=O)NCCCC[C@@H](C(N)=O)NC(=O)[C@H](Cc2c[nH]c3ccccc23)NC(=O)[C@H](CCCNC(=N)N)NC(=O)[C@@H](Cc2ccccc2)NC(=O)[C@H](Cc2c[nH]cn2)NC1=O [gallium-67 labelled], the tissue uptake was 16.4 ± 2.99 %ID/g (female C57 mice, B16/F1 melanoma, kidneys; intravenous, 0.037 MBq, 0.5 h).
For N=C(N)NCCC[C@@H]1NC(=O)[C@H](CCCCNC(=O)CON=C[C@H](F)[C@@H](O)[C@H](O)[C@H](O)CO)NC(=O)[C@@H](Cc2ccc(O)cc2)NC(=O)[C@H](CC(=O)O)NC(=O)CNC1=O [fluorine-18 labelled], the tissue uptake was 1.32 ± 1.3 %ID/g (nude mice U-87 MG tumour, liver; intravenous, 0.5 h).
O=C([O-])c1cccc(CN(CCN(Cc2cn(Cc3ccccc3)nn2)Cc2cccc(C(=O)[O-])n2)Cc2cn(Cc3ccccc3)nn2)n1.[64Cu+2] has a tissue uptake of 5.1 %ID/g (healthy athymic nude mice, lung; intravenous, 15 min).
CCCC[C@@H]1NC(=O)[C@@H](NC(=O)[C@H](CCC(=O)O)NC(=O)CNC(=O)CN2CCN(CC(=O)O)CCN(CC(=O)O)CCN(CC(=O)O)CC2)CCCCNC(=O)C[C@@H](C(N)=O)NC(=O)[C@H](C(C)C)NC(=O)[C@@H]2CCCN2C(=O)[C@H](CCCNC(=N)N)NC(=O)CNC(=O)[C@H](Cc2c[nH]c3ccccc23)NC(=O)[C@H](CCCNC(=N)N)NC(=O)[C@@H](Cc2ccccc2)NC(=O)[C@H](Cc2c[nH]cn2)NC(=O)[C@H](CCC(=O)O)NC1=O [gallium-67 labelled] has a tissue uptake of 0.12 ± 0.08 %ID/g (C57 mice, B16/F10 lung metastatic melanoma, heart; intravenous, 0.037 MBq, 4 h).
The tissue uptake of N=C(N)NCCC[C@H](NC(=O)CON=C[C@H](F)[C@@H](O)[C@H](O)[C@H](O)CO)C(=O)NCC(=O)N[C@@H](CC(=O)O)C(=O)O [fluorine-18 labelled] is reported as 0.49 ± 0.1 %ID/g (nude mice U-87 MG tumour, spleen; intravenous, 0.5 h).
CCCC[C@H](NC(=O)CNC(=O)CNC(=O)CN1CCN(CC(=O)O)CCN(CC(=O)O)CC1)C(=O)N[C@H]1CC(=O)NCCCC[C@@H](C(N)=O)NC(=O)[C@H](Cc2c[nH]c3ccccc23)NC(=O)[C@H](CCCNC(=N)N)NC(=O)[C@@H](Cc2ccccc2)NC(=O)[C@H](Cc2c[nH]cn2)NC1=O [gallium-67 labelled] has a tissue uptake of 0.71 ± 0.24 %ID/g (female C57 mice, B16/F1 melanoma, bone; intravenous, 0.037 MBq, 24 h).
With O=C([O-])CN1CCN(CC(=O)[O-])CCN(CC(=O)NC[C@H]2CC[C@H](C(=O)N[C@H](Cc3cnc4ccccc4c3)C(=O)NCCCC[C@H](NC(=O)N[C@@H](CCC(=O)O)C(=O)O)C(=O)O)CC2)CCN(CC(=O)[O-])CC1.[64Cu+2] the tissue uptake was 9.86 ± 1.12 %ID/g (ex vivo gamma counting; 22Rv1 tumour-bearing mice, kidney; intravenous, 0.74 MBq, 24 h).
With NC12CNCCNCC(NCc3ccc(CNC(=O)CCCC(=O)NCc4ccc(-c5nncnn5)cc4)cc3)(CNCCNC1)CNCCNC2.[64Cu+2] the tissue uptake was 0.23 ± 0.05 %ID/g (athymic nude mice SW1222 xenograft, bone; 12 h post injection, 24 h accumulation interval, with: huA33-TCO pretargeting).
O=C([O-])CN1CCN(CC(=O)[O-])CCN(CC(=O)NCCc2ccc3c(c2)C2C=CCC2C(c2cc4c(cc2Br)OCO4)N3)CCN(CC(=O)[O-])CC1.[111In+3] (centres unmarked) gave a tissue uptake of 1.5 ± 0.21 %ID/g (mice with Hec50 tumour xenograft, urinary bladder; 1 h).
O=C([O-])CN1CCN(CC(=O)[O-])CCN(CC(=O)[O-])CCN(CC(=O)[O-])CC1.[64Cu+2] gave a tissue uptake of 1.76 %ID/g (healthy athymic nude mice, skin; intravenous, 15 min).
CC(C)[C@H](NC(=O)[C@@H]1CCCN1C(=O)[C@H](CCCNC(=N)N)NC(=O)[C@H](CS)NC(=O)[C@H](Cc1c[nH]c2ccccc12)NC(=O)[C@H](CCCNC(=N)N)NC(=O)[C@@H](Cc1ccccc1)NC(=O)[C@H](Cc1c[nH]cn1)NC(=O)[C@H](CCC(=O)O)NC(=O)[C@H](CS)NC(=O)[C@H](CS)NC(=O)[C@@H]1CC(=O)N[C@@H](CCCNC(=N)N)C(=O)NCC(=O)N[C@@H](CC(=O)O)C(=O)N[C@H](Cc2ccc(O)cc2)C(=O)N1)C(N)=O [technetium-99m labelled] has a tissue uptake of 0.75 ± 0.21 %ID/g (C57 mice B16/F1 melanoma female, spleen; iv, 2 h, with: NDP-MSH 10 µg co-injected).
With CN1C(=O)[C@@H](Cc2ccc(O)c(I)c2)NC(=O)CNC(=O)[C@H](Cc2ccc3ccccc3c2)NC(=O)[C@H](CCCNC(=N)N)NC(=O)[C@H]1CCCNC(=O)c1ccc(CNC(=O)CN2CCN(CC(=O)O)CCN(CC(=O)O)CCN(CC(=O)O)CC2)cc1 [lutetium-177 labelled] the tissue uptake was 0.04 ± 0.005 %ID/g (refers to: 177Lu radioactivity; female CB-17 SCID mice, Daudi xenograft, muscle; intravenous, 0.16 nmol per mouse, 48 h).

A few entries again:
For N=C(N)NCCC[C@@H]1NC(=O)[C@H](CCCCNC(=O)CON=C[C@H](F)[C@@H](O)[C@H](O)[C@H](O)CO)NC(=O)[C@@H](Cc2ccc(O)cc2)NC(=O)[C@H](CC(=O)O)NC(=O)CNC1=O [fluorine-18 labelled], the tissue uptake was 1.32 ± 1.3 %ID/g (nude mice U-87 MG tumour, liver; intravenous, 0.5 h).
